Experimental data collected from several papers.
A part holds a random share of what one study measured. Substitutions count along the parent as printed.

Block 1
Target: Ras GTPase-activating protein-binding protein 1, RRM domain (G3BP1, Homo sapiens, UniProt Q13283)
Chain of UniProt Q13283 (whole entry, looked up): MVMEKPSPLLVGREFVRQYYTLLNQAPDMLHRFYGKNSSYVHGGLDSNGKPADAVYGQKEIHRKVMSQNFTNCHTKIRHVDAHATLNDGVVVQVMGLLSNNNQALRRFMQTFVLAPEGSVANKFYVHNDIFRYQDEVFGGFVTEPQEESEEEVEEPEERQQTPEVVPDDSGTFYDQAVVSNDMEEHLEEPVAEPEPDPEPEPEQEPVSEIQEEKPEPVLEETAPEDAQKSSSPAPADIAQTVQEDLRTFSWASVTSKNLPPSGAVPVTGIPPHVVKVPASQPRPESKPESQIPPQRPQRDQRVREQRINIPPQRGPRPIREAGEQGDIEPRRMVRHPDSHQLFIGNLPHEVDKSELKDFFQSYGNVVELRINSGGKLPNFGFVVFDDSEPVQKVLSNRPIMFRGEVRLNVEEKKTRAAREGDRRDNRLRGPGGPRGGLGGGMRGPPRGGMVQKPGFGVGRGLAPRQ
Technique: RNA Bind-n-Seq
Molecule type: RNA
Matrix: in vitro
Tested at: 1 µM
Setting: whole 134-nt RNA, ends assumed
With: 150 mM KCl
Baseline: input library
Direction: higher = stronger binding
Shared flanks, not repeated: GGGAGUUCUACAGUCCGACGAUC … UGGAAUUCUCGGGUGUCAAGG
| Oligonucleotide | log2 enrichment |
| --- | --- |
| AAGUCCUGUGCUACACAUCGUAUGUACCGAAUCGGGGCCCCGGGGCCCCGGCCCCGGAAAGUAUUAUGUUACGCCGUUCGGAUCUGCACU | -0.482 |
| UCCUGUGCUACACAUCGUAUGUACCGAAUCAAAUUUUUAAACCCCCAAAUUUUUUUAAAAAAGUAUUAUGUUACGCCGUUCGGAUCUGCA | -0.442 |
| GUCCUGUGCUACACAUCGUAUGUACCGAAUCGGGAAAAAAAGGGUUUUUGGGAAAGGGAAAGUAUUAUGUUACGCCGUUCGGAUCUGCAC | 0.049 |
| AGUCCUGUGCUACACAUCGUAUGUACCGAAUCGGGUUUUUGGGUUUGGGAAAAAGGGAAAGUAUUAUGUUACGCCGUUCGGAUCUGCACU | 0.209 |
| UGGGAGGUGGAUUUCGUUUAUUUUUUUAGCUCAUUUCCAGGGGUGGGAAUUUUUUUUUAAUAUGUGUCAUGAAUAAAGUUGUUUUUGAAA | 1.52 |
| CUCAAGUCCUGUGCUACACAUCGUAUGUACCGAAUCGGUUUGGUUUUUGGAGGAAAGUAUUAUGUUACGCCGUUCGGAUCUGCACUUCCA | -0.168 |
| AAGUCCUGUGCUACACAUCGUAUGUACCGAAUCGGAAAAAGGAAAAAGGAAAAAGGGAAAGUAUUAUGUUACGCCGUUCGGAUCUGCACU | 0.00901 |
| CACAGACAACACGCACCCACACAGACACAGAGGGCAGGGGUUGGGAUGGGGACAGGGUGCACAGCAGGGCGGGGUAGGACCCCAGCCCCU | -0.0812 |
| UAACUUAAGAGGAGGAUCUGAUGGAUAUGGCAGUGGACGUGGAUUUGGGGAUGGCUAUAAUGGGUAUGGAGGAGGACCUGGAGGUGGCAA | -0.732 |
| UUUUAUGUGGAGUUAUGAAGACCUACAGGCAGAGAGAGAAACAGGGGAGCAAGGUGCAAGAGUCCACAAAGGGACCUGAUGAAGCGAAGA | 0.126 |
| AGUCCUGUGCUACACAUCGUAUGUACCGAAUCGGGCCCCGGGCCCCGGGGCCCCGGGGAAAGUAUUAUGUUACGCCGUUCGGAUCUGCAC | -0.668 |
| UGGGAGGUGGAUUUUGUUUAUUUUUUUAGCUCAUUUCCAGGGGUGGGAAUUUUUUUUUAAUAUGUGUCAUGAAUAAAGUAGUUUUUGAAA | 1.5 |
| CUGUGCUACACAUCGUAUGUACCGAAUCGGGGUUUUUUUGGGUUUUUUUGGGUUUUUUUGGGAAAGUAUUAUGUUACGCCGUUCGGAUCU | -0.24 |
| AGUCCUGUGCUACACAUCGUAUGUACCGAAUCGGGUUUGGGUUUGGGAAAAAAAGGGAAAGUAUUAUGUUACGCCGUUCGGAUCUGCACU | 0.243 |

Block 2
Target: CCNF, cyclin fold, Cln2 fusion (human)
Technique: yeast growth competition, sequencing
Matrix: yeast
Setting: strong parent motif
Baseline: not given
Direction: higher = stronger binding
Parent: ORC1 docking peptide (human); PRARKRLELGNLG; partner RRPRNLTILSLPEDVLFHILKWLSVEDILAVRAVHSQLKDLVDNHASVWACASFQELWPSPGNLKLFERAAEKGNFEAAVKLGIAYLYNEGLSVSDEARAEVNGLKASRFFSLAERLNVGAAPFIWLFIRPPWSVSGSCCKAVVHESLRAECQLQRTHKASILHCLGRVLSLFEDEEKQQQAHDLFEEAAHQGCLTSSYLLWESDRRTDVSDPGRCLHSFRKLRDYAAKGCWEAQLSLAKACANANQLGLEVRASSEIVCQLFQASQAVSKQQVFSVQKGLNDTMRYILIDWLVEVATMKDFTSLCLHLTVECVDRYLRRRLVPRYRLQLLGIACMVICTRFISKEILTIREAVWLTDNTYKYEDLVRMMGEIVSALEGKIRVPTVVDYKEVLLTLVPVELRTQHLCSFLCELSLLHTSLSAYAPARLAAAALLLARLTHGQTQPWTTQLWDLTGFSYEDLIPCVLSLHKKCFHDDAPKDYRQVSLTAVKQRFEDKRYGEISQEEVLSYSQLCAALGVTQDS
| Variant | normalised enrichment score |
| --- | --- |
| L7V | 0.786 |
| K5Q | 0.863 |
| L12T | 2.86 |
| G10T | 2.21 |
| L9D | 1.08 |
| E8P | 1.65 |
| R6H | 1.25 |
| E8K | 0.997 |
| A3N | 2.09 |
| R6N | 1.18 |
| K5T | 1.01 |
| R4M | 0.9 |
| R2I | 4.21 |
| K5S | 1.33 |
| A3L | 1.02 |
| A3Y | 2.19 |
| P1N | 3.6 |
| G10E | 4.34 |
| R6Y | 1.54 |
| L9M | 4.17 |
| K5R | 7.38 |
| L7A | 0.991 |
| E8F | 5.11 |

Block 3
Target: Histone acetyltransferase KAT6A, winged helix 1, GST fusion (KAT6A, Homo sapiens, UniProt Q92794, residues 1-85)
Technique: protein binding microarray
Molecule type: double-stranded DNA, one strand shown
Matrix: in vitro
Tested at: not given
Setting: 8-mer, flanks averaged, mean of 2 arrays, mostly near background
Baseline: not given
Direction: higher = stronger binding
Construct (chain): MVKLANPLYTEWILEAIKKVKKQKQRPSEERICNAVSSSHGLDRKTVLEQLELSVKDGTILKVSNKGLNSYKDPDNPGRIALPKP
| Oligonucleotide | E-score |
| --- | --- |
| AAACAGTC | -0.00385 |
| AGGAGGAG | -0.207 |
| AAGCTAGT | -0.166 |
| GAACAGAA | -0.12 |
| ACACGCAT | 0.128 |
| TAGCCTGA | -0.338 |
| GCCTACGC | 0.147 |
| CAGGTAAA | -0.0688 |
| AGACGACC | 0.00183 |
| CCCCAGCG | 0.0825 |
| CCACGCGC | 0.392 |
| GGTAAGAC | -0.12 |
| GTAGTGAC | 0.0353 |
| AAGGCCCC | 0.144 |
| TCGCCCCA | -0.12 |
| ACCGTCCT | 0.158 |
| CCACAGGC | -0.09 |
| GTCTCTCA | -0.0187 |
| ATCTGATA | -0.045 |
| AAGAGACT | -0.157 |
| AAGCCTCG | 0.0244 |
| CGGTAGCA | -0.0107 |
| CATTCCGG | 0.0338 |
| AGGGCTAA | -0.0514 |
| AGGACCAA | -0.196 |

Block 4
Target: ATF2, bZIP domain (human)
Technique: DHFR protein complementation
Matrix: yeast
Setting: single substitutions, most at no-binding floor
Baseline: wild-type JUN-FOS pair
Direction: higher = stronger binding
Parent: JUN, bZIP domain (human); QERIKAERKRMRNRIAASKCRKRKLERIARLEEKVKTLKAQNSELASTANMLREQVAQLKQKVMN; partner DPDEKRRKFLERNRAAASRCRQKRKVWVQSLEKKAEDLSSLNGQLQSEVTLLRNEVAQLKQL
| Variant | binding fitness [natural log] |
| --- | --- |
| V35C | -1.36 |
| R53K | -1.61 |
| T37A | -1.38 |
| Q55A | -1.42 |
| R30V | -1.35 |
| R30A | -1.17 |
| S47M | -1.29 |
| L31R | -1.51 |
| V56A | -1.41 |
| Q55E | -1.29 |
| N42I | -1.46 |
| A49P | -1.5 |
| S47V | -1.39 |
| N42L | -1.49 |
| E33W | -1.31 |
| S43L | -1.28 |
| S43K | -1.31 |
| V56Q | -1.48 |
| A57W | -1.46 |
| Q55G | -1.44 |
| T37K | -1.37 |
| Q41V | -1.38 |
| L45S | -1.53 |

Block 5
Target: TAR DNA-binding protein 43, full length, His tag (TARDBP, Homo sapiens, UniProt Q13148, residues 1-414)
Technique: RNA Bind-n-Seq
Molecule type: RNA
Matrix: in vitro
Tested at: 20 nM
Setting: 6-mer, flanks averaged, single round
With: 150 mM LiCl
Baseline: input library
Direction: higher = stronger binding
| Oligonucleotide | 6-mer enrichment (R) |
| --- | --- |
| UACUAG | 0.851 |
| GUUUAU | 1.23 |
| CAUAGG | 0.884 |
| GCUCAG | 0.868 |
| UUUAGG | 1.06 |
| UGCAAC | 0.87 |
| GGAGUG | 1.38 |
| GACUAA | 0.87 |
| AUCAGA | 0.776 |
| CCCAUA | 0.992 |
| UACCAA | 0.839 |
| CGAGGU | 1 |
| GAGCCC | 1.02 |
| UCCAUU | 0.946 |
| CUUGCG | 0.962 |
| CUGGGU | 1.05 |
| UACUGA | 0.835 |
| CGGCAA | 0.884 |
| CAAUAU | 0.934 |
| UUCGUC | 0.961 |
| GAUUUA | 0.922 |

Block 6
Target: Sal-like protein 4, full length isoform A (SALL4, Homo sapiens, UniProt Q9UJQ4, residues 1-1053)
Chain of UniProt Q9UJQ4 (whole entry, looked up): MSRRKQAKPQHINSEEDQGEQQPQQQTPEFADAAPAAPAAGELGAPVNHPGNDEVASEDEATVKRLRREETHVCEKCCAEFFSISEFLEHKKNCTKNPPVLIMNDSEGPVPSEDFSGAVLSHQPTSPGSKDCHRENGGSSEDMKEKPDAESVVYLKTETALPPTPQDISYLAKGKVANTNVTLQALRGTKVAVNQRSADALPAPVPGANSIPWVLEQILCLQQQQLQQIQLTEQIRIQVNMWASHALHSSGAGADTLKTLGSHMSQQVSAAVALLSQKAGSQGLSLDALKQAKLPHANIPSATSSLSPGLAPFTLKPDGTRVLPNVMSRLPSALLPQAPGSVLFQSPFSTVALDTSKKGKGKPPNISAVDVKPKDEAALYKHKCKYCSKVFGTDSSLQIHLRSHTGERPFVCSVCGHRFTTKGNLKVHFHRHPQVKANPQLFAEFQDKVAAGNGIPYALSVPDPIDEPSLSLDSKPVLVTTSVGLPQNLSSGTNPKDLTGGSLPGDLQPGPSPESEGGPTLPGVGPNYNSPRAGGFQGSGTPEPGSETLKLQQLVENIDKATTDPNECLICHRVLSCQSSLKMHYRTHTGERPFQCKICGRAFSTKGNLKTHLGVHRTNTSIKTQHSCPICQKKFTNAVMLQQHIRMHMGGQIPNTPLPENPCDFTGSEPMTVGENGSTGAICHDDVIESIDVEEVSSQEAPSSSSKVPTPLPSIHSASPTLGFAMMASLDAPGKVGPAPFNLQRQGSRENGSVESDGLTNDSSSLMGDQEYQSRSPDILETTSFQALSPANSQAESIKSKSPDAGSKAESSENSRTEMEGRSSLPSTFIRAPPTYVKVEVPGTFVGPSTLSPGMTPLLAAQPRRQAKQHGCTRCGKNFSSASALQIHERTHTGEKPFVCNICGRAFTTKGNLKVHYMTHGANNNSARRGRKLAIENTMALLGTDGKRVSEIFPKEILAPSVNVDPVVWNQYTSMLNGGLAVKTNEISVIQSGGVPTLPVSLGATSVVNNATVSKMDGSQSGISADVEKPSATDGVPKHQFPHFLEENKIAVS
Technique: universal PBM
Molecule type: double-stranded DNA, one strand shown
Matrix: in vitro
Tested at: 600 nM
Setting: 8-mer, flanks averaged, mean of replicates
Direction: higher = stronger binding
| Oligonucleotide | E-score |
| --- | --- |
| AGCGGACC | -0.256 |
| AATTTGGC | 0.0839 |
| GACGCCTA | -0.273 |
| CCTGCATC | -0.178 |
| TCCCATCA | 0.0287 |
| AAGCGCTC | -0.158 |
| GCCCATGA | -0.232 |
| GTGTACGA | 0.0319 |
| CATGGGGA | -0.174 |
| ATGCAAAC | 0.0877 |
| CTAATCGA | 0.037 |
| ATATCTGG | 0.183 |
| AAATTCTG | 0.223 |
| GCAAATAA | 0.281 |
| CCAGGCCG | -0.299 |
| CATGCATA | 0.226 |
| ATTAAAAA | 0.383 |
| GCGGCCCC | -0.347 |
| CTTTTTAA | 0.248 |
| CAATTGAC | 0.0877 |
| ACCGCTTA | -0.154 |
| GCCTGGGA | -0.345 |
| AACTATGT | 0.132 |
| GATGCTGC | -0.132 |
| CATCATCA | 0.217 |

Mixed results
| Molecule | target | test | test system | conditions | how to read | quantity | result |
| --- | --- | --- | --- | --- | --- | --- | --- |
| PhoQ, residues 284 288 289 292 302 303 TLASMF | PhoP, residues 12 14 15 18 19 SGWQI (Escherichia coli, UniProt P23836) | Sort-seq, measured: YFP reporter | E. coli | PhoQ-PhoP variant library, with: 10 µM Mg2+ | baseline: high Mg2+ state, higher = stronger signaling | fold induction | 8.19 |

Some of these lines once more (block 6):
| Oligonucleotide | E-score |
| --- | --- |
| ATGCAAAC | 0.0877 |
| CTAATCGA | 0.037 |
| ATATCTGG | 0.183 |
| AAATTCTG | 0.223 |
| GCAAATAA | 0.281 |
| CCAGGCCG | -0.299 |
| CATGCATA | 0.226 |
| ATTAAAAA | 0.383 |
| GCGGCCCC | -0.347 |
| CTTTTTAA | 0.248 |
| CAATTGAC | 0.0877 |
| ACCGCTTA | -0.154 |
| GCCTGGGA | -0.345 |
